Measurements gathered from unrelated publications.
Every numbered part comes from another study and shows a few of its results, in no order. Substitutions count along the parent as printed.

Sample 1
Target: Interferon regulatory factor 7, full length, phosphomimetic (IRF7, Homo sapiens, UniProt Q92985, residues 1-503, S471D/S472D/S475D/S476D/S477D/S483D/S484D/S487D)
Method: protein-binding microarray
Molecule type: double-stranded DNA, one strand shown
Sample: in vitro
Concentration: 2200 nM top
Notes: 60-bp whole probe
Added: salmon DNA 0.4 mg/ml
Relative to: random background probes
Reading: higher = stronger binding
Measurement: fitted relative affinity
Shared flanks, not repeated: GCCTAGCAC … GTCTTGATTCGCTTGACGCTGCTG
Target sequence (chain): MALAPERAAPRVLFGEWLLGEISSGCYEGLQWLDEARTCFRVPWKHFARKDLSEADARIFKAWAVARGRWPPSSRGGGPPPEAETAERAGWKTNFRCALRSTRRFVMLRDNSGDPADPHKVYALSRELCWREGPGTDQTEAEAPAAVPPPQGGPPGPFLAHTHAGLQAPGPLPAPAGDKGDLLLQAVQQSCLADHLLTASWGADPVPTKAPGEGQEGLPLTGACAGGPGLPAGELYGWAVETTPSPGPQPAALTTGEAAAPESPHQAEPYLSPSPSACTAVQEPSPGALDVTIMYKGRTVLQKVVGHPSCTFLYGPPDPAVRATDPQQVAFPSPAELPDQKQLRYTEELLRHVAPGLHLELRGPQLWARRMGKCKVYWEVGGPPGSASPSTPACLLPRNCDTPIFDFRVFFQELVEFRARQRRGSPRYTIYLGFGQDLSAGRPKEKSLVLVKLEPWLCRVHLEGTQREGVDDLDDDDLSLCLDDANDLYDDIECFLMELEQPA
GGTGTTTTCTAAACCATTGTGTGCTAG: 1.33 z-score
TTAGGTATCCTTTTCCTTTTGTGCTAG: 3.08 z-score
TCACTTTCCCCTTCCTAACTGTGCTAG: 7.89 z-score
ATCTTAATAAGGTTTCCAATCGTGCTA: 0.588 z-score
GACGGTGTCGACTTTCGGGACGTGCTA: 2.65 z-score
GACGATTTCATTCTCGAGACGTGCTAG: 1.37 z-score
TTAGGAATCGGGTATCGGTTAGTGCTA: 0.293 z-score

Sample 2
Target: Sal-like protein 4, full length isoform B (SALL4, Homo sapiens, UniProt Q9UJQ4-2, residues 1-616)
Method: universal PBM
Molecule type: double-stranded DNA, one strand shown
Sample: in vitro
Concentration: not given
Notes: 8-mer, flanks averaged, mean of replicates
Reading: higher = stronger binding
Measurement: E-score
Target sequence (chain): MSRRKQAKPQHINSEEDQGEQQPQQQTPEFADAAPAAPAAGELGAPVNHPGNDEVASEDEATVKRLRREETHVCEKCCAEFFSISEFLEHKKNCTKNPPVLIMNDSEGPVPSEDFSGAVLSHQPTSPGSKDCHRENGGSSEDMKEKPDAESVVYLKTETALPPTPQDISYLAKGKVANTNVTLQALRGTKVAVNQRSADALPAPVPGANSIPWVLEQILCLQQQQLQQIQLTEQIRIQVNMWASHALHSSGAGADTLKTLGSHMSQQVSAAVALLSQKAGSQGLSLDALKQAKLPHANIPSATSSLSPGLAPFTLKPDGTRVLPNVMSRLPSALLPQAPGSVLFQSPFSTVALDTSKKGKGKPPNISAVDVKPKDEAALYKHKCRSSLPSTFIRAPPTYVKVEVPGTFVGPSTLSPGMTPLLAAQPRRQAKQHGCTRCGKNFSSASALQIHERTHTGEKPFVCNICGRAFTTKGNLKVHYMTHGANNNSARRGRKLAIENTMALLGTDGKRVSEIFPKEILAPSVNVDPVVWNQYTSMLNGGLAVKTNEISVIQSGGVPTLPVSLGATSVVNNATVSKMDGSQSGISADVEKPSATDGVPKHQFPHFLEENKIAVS
ACGTCATG: 0.0891
AGTCGACC: -0.191
TGATTCAA: 0.177
ACCGGATC: -0.225
CCCTGGGC: -0.361
ATTCTTCC: 0.0396
CACAGAGA: 0.00399

Sample 3
Target: CCNB3, cyclin fold, Cln2 fusion (human)
Method: yeast growth competition, sequencing
Sample: yeast
Notes: weak parent motif
Relative to: not given
Reading: higher = stronger binding
Measurement: normalised enrichment score
Starting sequence: RB1 docking peptide (human); PKPLKKLRFDIEG; partner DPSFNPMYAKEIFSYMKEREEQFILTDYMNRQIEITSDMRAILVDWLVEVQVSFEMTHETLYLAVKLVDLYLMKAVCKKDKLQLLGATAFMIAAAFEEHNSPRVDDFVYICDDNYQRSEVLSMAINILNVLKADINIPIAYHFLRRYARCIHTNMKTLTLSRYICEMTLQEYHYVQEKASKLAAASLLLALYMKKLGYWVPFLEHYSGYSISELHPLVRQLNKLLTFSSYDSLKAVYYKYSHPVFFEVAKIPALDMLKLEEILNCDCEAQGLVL
PKPLKKLNFDIEG [R8N]: 0.695
PKHLKKLRFDIEG [P3H]: -0.614
PKPLHKLRFDIEG [K5H]: 0.352
PKPLKKLRFDICG [E12C]: 0.0779
PKPLKKLRFDSEG [I11S]: 0.0401
PKPLKKLRFDIEM [G13M]: 0.355
PKPLKKLRFDAEG [I11A]: 0.426

Mixed results
PhoQ, residues 284 288 289 292 302 303 ALSMDL
fold induction (PhoP, residues 12 14 15 18 19 FWNTL (Escherichia coli, UniProt P23836); Sort-seq, refers to: YFP reporter; E. coli; PhoQ-PhoP variant library, added: 10 µM Mg2+; relative to: high Mg2+ state, higher = stronger signaling): 17.3

For quick reference, copied from above (sample 2):
TGATTCAA: 0.177
CACAGAGA: 0.00399
CCCTGGGC: -0.361
